Measurements gathered from unrelated publications.
Compare with care: the assays were run in different laboratories.

SMILES | test | test system | setting | half-life [h]
CC(C)C[C@@H](CC(=O)N[C@@H](CO)C(=O)N1CCC[C@H]1C(=O)N[C@H](C(N)=O)[C@@H](C)O)NC(=O)[C@H](Cc1cccc2ccccc12)NC(=O)[C@H](CNC(=O)c1ccc2cc(F)ccc2c1)NC(=O)[C@H](CO)NC(=O)C1CCNCC1 | chemical stability | male human, serum | 1 mM, pH 7.4 | > 24
CC(C)(O)c1ncc([S@](N)(=O)=NC(=O)Nc2c3c(cc4c2CCC4)CCC3)s1 | – | healthy human, fasted | oral, 300 mg single dose, capsule formulation | 19.9
C#Cc1cccc(Nc2ncnc3cc(OC)c(OCCCN4CCOCC4)cc23)c1 | metabolic stability | monkey, liver microsomes | 1 µM, pH 7.4 | 0.0835
O=C(CCc1ccc(CNC(C(=O)OC2CCCC2)C2CCCCC2)cn1)NO (stereo not shown) | – | human, plasma | oral, multiple dose | < 1
O=C(O)c1cccc(S(=O)(=O)Nc2ccccc2)c1 | – | human, mild liver dysfunction, plasma | intravenous, 400 mg/m^2 belinostat, 30 min infusion, cycle 1 day -7 | 4.22
Cc1ccc(OCC(=O)N(Cc2cccs2)c2ccn[nH]2)cc1 | – | female Sprague-Dawley rat, plasma | oral, 10 mg/kg, single dose | 1.46
O=C(O)/C=C/c1cccc(S(=O)(=O)Nc2ccccc2)c1 | – | human, severe liver dysfunction, plasma | intravenous, 400 mg/m^2 belinostat, 30 min infusion, cycle 1 day -7 | 2.55
Cn1c(=O)oc2ccc(-c3ccc(CC(C#N)NC(=O)C4CNCCCO4)c(F)c3)cc21 (stereo not shown) | – | human, plasma | 10 mg once daily, day 28, mean | 25.7
CSCOC1C(=O)C2(C)C(OCSC)CC3OCC3(OC(C)=O)C2C(OC(=O)c2ccccc2)C2(O)CC(OC(=O)C(O)C(C=C(C)C)NC(=O)OC(C)(C)C)C(C)=C1C2(C)C (stereo not shown) | – | male Sprague-Dawley rat, plasma | intravenous, 4 mg/kg | 7.9
CONC(=O)/C=C/c1cccc(S(=O)(=O)Nc2ccccc2)c1 | – | human, moderate liver dysfunction, plasma | intravenous, 400 mg/m^2 belinostat, 30 min infusion, cycle 1 day -7 | 2.27

Excerpt of the above:
SMILES | test | test system | setting | half-life [h]
O=C(O)/C=C/c1cccc(S(=O)(=O)Nc2ccccc2)c1 | – | human, severe liver dysfunction, plasma | intravenous, 400 mg/m^2 belinostat, 30 min infusion, cycle 1 day -7 | 2.55
